Results of several laboratories.
Each line is one published result; not all experiments were run side by side. ± gives the spread as reported.
lecB: Fucose-binding lectin PA-IIL (lecB, Pseudomonas aeruginosa, UniProt Q9HYN5)
Chain of UniProt P25440 (whole entry, looked up): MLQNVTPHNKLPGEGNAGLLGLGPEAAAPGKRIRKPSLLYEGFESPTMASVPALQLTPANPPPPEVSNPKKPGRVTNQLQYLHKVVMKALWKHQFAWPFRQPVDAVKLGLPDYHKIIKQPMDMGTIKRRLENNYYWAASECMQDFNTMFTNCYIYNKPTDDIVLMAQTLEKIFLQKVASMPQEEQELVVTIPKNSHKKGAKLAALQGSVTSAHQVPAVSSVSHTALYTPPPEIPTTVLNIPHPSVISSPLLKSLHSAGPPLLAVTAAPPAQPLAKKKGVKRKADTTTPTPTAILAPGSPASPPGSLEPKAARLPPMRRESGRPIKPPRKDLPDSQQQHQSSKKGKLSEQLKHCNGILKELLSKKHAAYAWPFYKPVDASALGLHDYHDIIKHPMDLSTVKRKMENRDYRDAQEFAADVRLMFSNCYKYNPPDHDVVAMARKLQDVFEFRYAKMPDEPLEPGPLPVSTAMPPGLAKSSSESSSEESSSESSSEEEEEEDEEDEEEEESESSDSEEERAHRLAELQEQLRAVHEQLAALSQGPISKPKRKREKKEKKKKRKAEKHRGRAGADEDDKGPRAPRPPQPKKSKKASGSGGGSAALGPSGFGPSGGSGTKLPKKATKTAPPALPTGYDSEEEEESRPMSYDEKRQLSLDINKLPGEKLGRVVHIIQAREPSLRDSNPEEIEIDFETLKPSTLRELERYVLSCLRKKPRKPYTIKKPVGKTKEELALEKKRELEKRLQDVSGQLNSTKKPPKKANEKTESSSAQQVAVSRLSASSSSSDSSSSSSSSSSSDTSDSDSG
Chain of UniProt Q06911 (whole entry, looked up): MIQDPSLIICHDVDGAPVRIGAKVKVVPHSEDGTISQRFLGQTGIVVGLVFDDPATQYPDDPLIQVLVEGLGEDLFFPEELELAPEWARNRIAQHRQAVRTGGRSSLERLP
Chain of UniProt P00747 (whole entry, unmodified, looked up): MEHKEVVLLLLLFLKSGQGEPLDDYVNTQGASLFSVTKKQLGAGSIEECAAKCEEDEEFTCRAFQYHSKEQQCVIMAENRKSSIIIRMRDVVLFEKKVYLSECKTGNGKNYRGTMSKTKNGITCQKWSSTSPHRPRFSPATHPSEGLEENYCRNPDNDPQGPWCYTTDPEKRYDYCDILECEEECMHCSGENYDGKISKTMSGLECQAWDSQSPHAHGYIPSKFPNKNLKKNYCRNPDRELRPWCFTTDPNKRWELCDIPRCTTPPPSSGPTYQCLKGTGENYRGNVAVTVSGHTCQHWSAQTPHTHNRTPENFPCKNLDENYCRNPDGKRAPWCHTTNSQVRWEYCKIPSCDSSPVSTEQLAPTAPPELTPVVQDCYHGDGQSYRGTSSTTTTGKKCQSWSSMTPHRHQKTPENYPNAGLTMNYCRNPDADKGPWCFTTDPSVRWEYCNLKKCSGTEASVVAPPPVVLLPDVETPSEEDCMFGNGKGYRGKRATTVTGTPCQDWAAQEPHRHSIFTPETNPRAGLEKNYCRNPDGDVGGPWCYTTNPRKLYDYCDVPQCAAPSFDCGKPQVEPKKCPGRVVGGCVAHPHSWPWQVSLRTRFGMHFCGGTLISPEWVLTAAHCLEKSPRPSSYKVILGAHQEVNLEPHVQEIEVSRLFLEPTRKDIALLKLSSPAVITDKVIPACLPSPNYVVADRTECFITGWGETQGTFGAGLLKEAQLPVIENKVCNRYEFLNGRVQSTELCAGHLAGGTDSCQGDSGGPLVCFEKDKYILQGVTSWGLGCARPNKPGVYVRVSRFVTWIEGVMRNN
Chain of UniProt P07492 (whole entry, looked up): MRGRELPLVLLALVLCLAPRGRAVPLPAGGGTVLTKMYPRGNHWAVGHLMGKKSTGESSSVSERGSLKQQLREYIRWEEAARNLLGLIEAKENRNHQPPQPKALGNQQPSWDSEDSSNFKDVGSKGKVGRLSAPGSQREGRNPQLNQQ
Chain of UniProt P11362 (whole entry, looked up): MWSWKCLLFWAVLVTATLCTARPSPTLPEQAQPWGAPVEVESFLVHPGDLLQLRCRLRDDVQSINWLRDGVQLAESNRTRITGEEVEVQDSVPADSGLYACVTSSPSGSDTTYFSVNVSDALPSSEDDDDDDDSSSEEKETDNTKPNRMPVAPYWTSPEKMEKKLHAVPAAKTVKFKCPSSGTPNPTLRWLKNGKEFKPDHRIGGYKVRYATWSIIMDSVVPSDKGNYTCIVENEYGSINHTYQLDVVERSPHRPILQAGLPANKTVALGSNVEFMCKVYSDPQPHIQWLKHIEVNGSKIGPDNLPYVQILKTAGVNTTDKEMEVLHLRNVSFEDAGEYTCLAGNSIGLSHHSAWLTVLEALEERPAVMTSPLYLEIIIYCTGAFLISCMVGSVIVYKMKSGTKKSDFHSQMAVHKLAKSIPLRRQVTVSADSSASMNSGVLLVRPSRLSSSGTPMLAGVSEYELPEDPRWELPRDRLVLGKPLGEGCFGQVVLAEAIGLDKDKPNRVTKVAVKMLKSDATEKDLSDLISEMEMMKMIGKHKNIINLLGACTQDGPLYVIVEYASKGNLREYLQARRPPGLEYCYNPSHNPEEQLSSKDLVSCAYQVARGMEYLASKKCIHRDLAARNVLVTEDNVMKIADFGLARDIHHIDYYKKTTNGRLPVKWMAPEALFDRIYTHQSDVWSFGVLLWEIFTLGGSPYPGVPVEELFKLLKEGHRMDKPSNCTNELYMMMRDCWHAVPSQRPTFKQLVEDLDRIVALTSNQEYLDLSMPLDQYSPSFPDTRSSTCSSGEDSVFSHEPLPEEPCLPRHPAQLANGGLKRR
Chain of UniProt Q07741 (whole entry, looked up): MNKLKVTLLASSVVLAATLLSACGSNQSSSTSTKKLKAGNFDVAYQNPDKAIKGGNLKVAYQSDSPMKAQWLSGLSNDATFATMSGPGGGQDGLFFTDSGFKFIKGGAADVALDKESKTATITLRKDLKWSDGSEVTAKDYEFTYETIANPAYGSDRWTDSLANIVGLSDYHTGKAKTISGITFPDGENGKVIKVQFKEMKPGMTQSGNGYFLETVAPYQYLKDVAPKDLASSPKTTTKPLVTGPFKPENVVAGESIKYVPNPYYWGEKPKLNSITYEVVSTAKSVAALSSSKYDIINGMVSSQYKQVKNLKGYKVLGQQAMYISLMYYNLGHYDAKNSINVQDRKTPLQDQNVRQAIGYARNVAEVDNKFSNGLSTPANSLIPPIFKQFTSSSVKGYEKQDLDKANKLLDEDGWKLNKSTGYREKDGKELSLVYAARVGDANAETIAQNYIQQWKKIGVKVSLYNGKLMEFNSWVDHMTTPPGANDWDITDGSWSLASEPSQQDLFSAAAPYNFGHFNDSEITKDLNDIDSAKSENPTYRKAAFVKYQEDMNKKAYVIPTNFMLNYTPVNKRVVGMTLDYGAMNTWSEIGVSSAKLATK
Chain of UniProt Q9HB29 (whole entry, looked up): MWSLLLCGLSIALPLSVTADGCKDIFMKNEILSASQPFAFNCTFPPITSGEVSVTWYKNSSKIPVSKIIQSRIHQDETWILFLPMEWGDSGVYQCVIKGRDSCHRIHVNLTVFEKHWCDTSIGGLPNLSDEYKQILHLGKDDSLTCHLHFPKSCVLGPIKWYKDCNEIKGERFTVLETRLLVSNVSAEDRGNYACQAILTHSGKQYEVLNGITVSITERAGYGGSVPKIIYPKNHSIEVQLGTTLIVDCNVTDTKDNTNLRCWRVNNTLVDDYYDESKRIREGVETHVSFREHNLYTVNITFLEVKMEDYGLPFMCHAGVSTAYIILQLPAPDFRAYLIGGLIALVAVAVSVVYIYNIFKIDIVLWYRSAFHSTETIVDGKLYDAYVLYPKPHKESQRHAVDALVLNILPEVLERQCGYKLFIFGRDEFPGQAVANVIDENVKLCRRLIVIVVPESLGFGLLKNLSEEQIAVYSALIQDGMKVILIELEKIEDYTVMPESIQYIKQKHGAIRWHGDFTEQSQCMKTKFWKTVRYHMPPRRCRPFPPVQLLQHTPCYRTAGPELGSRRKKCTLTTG
Chain of UniProt Q9BY41 (whole entry, looked up): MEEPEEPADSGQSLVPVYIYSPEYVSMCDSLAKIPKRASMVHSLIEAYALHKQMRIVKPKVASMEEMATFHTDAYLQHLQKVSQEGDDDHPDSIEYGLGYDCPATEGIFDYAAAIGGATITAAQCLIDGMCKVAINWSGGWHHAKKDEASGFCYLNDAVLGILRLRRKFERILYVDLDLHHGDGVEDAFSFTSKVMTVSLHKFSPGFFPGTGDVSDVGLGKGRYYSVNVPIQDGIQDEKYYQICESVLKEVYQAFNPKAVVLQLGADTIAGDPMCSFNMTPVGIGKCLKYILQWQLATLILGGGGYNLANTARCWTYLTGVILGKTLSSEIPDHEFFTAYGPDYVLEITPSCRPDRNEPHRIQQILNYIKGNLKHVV
Chain of UniProt Q9UER7 (55-144, looked up): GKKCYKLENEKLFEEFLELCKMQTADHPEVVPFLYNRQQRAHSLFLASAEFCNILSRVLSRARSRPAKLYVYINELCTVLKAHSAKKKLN

Structure (SMILES)	target	test	system	conditions	Kd [nM]
C[C@@H](O)[C@H](NC(=O)[C@H](CCCCN)NC(=O)CCC(=O)O)C(=O)NCC(=O)N[C@@H](CC(=O)O)C(=O)N[C@@H](CCC(=O)O)C(=O)N[C@@H](CCCCN)C(=O)N[C@@H](CCCCN)C(=O)NCC(=O)NCC(=O)N[C@@H](Cc1ccc(O)cc1)C(=O)NCC(=O)N[C@@H](CCCNC(=N)N)C(=O)N[C@@H](CCCCN)C(=O)N[C@@H](CCCCN)C(=O)N[C@@H](CCCNC(=N)N)C(=O)N[C@@H](CCCNC(=N)N)C(=O)N[C@@H](CCC(N)=O)C(=O)N[C@@H](CCCNC(=N)N)C(=O)N[C@@H](CCCNC(=N)N)C(=O)N[C@@H](CCCNC(=N)N)C(N)=O	Heat shock protein HSP 90-alpha (HSP90AA1, Homo sapiens, UniProt P07900)	binding, field-effect biosensor	–	pH 7.4	16400 ± 3440
CC[C@H](C)[C@H](NC(=O)[C@@H]1CSCc2cccc(c2)CSC[C@H](NC(=O)[C@@H](NC(=O)[C@H](Cc2ccc(O)cc2)NC(=O)[C@H](CO)NC(=O)[C@H](Cc2ccccc2)NC(=O)[C@H](CCSC)NC(C)=O)C(C)C)C(=O)N[C@@H]([C@@H](C)O)C(=O)N[C@@H](CC(C)C)C(=O)N[C@@H](CCCCN)C(=O)N[C@@H](CO)C(=O)N1)C(=O)N[C@@H](C)C(=O)N[C@@H](CCSC)C(=O)N[C@@H](Cc1c[nH]cn1)C(=O)NCC(=O)N[C@@H](CO)C(=O)NCC(=O)N[C@@H](CO)C(=O)NCC(=O)N[C@@H](CO)C(=O)N[C@@H](CC(=O)O)C(=O)N[C@@H](Cc1ccc(O)cc1)C(=O)N[C@@H](CCCCN)C(=O)N[C@@H](CC(=O)O)C(=O)N[C@@H](CC(=O)O)C(=O)N[C@@H](CC(=O)O)C(=O)N[C@@H](CC(=O)O)C(=O)N[C@@H](CCCCN)C(N)=O	Fibroblast growth factor receptor 1 (FGFR1, Homo sapiens, UniProt P11362)	binding, BLI	–	–	> 10000
O=C(O)CN(CC(=O)O)CP(=O)(O)O	Zn2+	binding, ITC	–	pH 7.0, 25 °C	56 ± 15
CC(C)[C@@H]1NC(=O)[C@H](Cc2ccccc2)NC(=O)CSC[C@@H](C(N)=O)NC(=O)[C@H](CCC(=O)O)NC(=O)[C@H](CO)NC(=O)[C@H](Cc2c[nH]c3ccccc23)NC(=O)[C@H](C(C)C)NC(=O)[C@H](C(C)C)NC(=O)[C@H](Cc2ccc(O)cc2)NC(=O)[C@H](CC(=O)O)NC(=O)[C@H](Cc2c[nH]c3ccccc23)NC(=O)[C@H](Cc2ccc(O)cc2)NC(=O)[C@H](Cc2c[nH]c3ccccc23)NC(=O)[C@H](CCC(=O)O)NC1=O	Interleukin-1 receptor-like 2, D1-D2 domains (IL1RL2, Homo sapiens, UniProt Q9HB29)	SPR	–	IL-36R D1-D2	1100
C=C(c1ccccc1)[C@@H](N)P(=O)(O)O	PAL1 (Petroselinum crispum, UniProt P24481, Y110F)	ITC	–	pH 8.0, 30 °C	170
CC(C)C[C@H](NC(=O)[C@@H]1CCCN1C(=O)[C@H](CCCCN)NC(=O)C[C@@H]1O[C@@H](C)[C@@H](O)[C@@H](O)[C@@H]1O)C(=O)N[C@@H](CCCCNC(=O)[C@H](CC(C)C)NC(=O)[C@@H]1CCCN1C(=O)[C@H](CCCCN)NC(=O)c1ccc(O[C@@H]2O[C@H](CO)[C@H](O)[C@H](O)[C@H]2O)cc1)C(=O)N[C@@H](Cc1ccccc1)C(=O)N[C@@H](CS)C(N)=O	lecB	binding, ITC	–	pH 7.5	2630
CC[C@H](C)[C@H](NC(=O)[C@H](Cc1c[nH]cn1)NC(=O)[C@H](CC(=O)O)NC(=O)[C@H](CCCNC(=N)N)NC(=O)[C@H](CO)NC(=O)[C@H](Cc1ccc(O)cc1)NC(=O)[C@H](CC(=O)O)NC(=O)[C@@H](NC(=O)[C@@H](N)CO)C(C)C)C(=O)N[C@@H](C)C(=O)N[C@@H](CO)C(=O)N[C@@H](CCC(=O)O)C(=O)O	Gastrin-releasing peptide (Homo sapiens, UniProt P07492)	biolayer interferometry	–	–	42
CCCCCCCC(=O)N[C@@H](CCCCNS(=O)(=O)c1cccc2c(N(C)C)cccc12)C(=O)N[C@H](C(=O)N[C@@H](CCN)C(=O)N[C@H]1CCNC(=O)[C@H]([C@@H](C)O)NC(=O)[C@H](CCN)NC(=O)[C@H](CCN)NC(=O)[C@H](CC(C)C)NC(=O)[C@@H](Cc2ccccc2)NC(=O)[C@H](CCN)NC1=O)[C@@H](C)O	Klebsiella pneumoniae ATCC 13883 lipopolysaccharide	fluorometric titration	–	pH 7.0	600 ± 100
CC[C@H](C)[C@H](NC(=O)[C@H](CCC(=O)O)NC(=O)[C@H](CCC(=O)O)NC(=O)[C@H](CC(C)C)NC(=O)[C@H](CC(C)C)NC(=O)[C@]1(C)CCCC=CCCC[C@](C)(NC(=O)[C@H](CCCNC(=N)N)NC(=O)[C@H](CC(N)=O)NC(=O)[C@H](CCC(=O)O)NC(=O)[C@@H]2CCCN2C(=O)[C@H](CC(=O)O)NC(=O)[C@H](CC(N)=O)NC(=O)[C@H](CC(=O)O)NC(=O)[C@H](CC(=O)O)NC(=O)[C@@H](N)CO)C(=O)N[C@@H](C)C(=O)N[C@@H](CCCCN)C(=O)N[C@@H](CCCCN)C(=O)N1)C(=O)N[C@@H](CCCCN)C(=O)N[C@@H](C)C(=O)N[C@@H](CC(N)=O)C(=O)N[C@@H](CC(C)C)C(=O)N[C@@H](CO)C(=O)O	Death domain-associated protein 6, residues 55-144 (Homo sapiens, UniProt Q9UER7)	isothermal titration calorimetry	–	pH 7.5, 25 °C	50
N=C(N)NCCC[C@H](NC(=O)[C@H](Cc1ccccc1)NC(=O)[C@@H]1CCCN1C(=O)[C@H](CO)NC(=O)[C@H](Cc1ccccc1)NC(=O)CNC(=O)[C@@H]1CCCN1C(=O)[C@@H]1CCCN1C(=O)[C@@H](N)CCCNC(=N)N)C(=O)N[C@@H](CCCCNS(=O)(=O)c1ccc(C2=c3cc4c5c(c3Oc3c2cc2c6c3CCCN6CCC2)CCC[N+]=5CCC4)c(S(=O)(=O)[O-])c1)C(=O)O	Oligopeptide-binding protein OppA (oppA, Lactococcus lactis subsp. lactis, UniProt Q07741)	binding, fluorescence anisotropy	–	pH 5, 18 °C, with: dye-labelled peptide	10000 ± 500
CC[C@H](C)[C@H](NC(=O)CNC(C)=O)C(=O)N[C@@H](CCCNC(=N)N)C(=O)N[C@@H](CCC(=O)O)C(=O)N[C@@H](C)C(=O)N[C@H](C(=O)N[C@@H](CC(C)C)C(=O)N[C@@H](CCCNC(=N)N)C(=O)N[C@@H](C)C(=O)N[C@@H](Cc1c[nH]c2ccccc12)C(=O)N[C@@H](CCC(=O)O)C(=O)N[C@@H](CCCNC(=N)N)C(=O)N[C@@H](CCCNC(=N)N)C(=O)N[C@@H](Cc1ccc(O)cc1)C(=O)NCC(N)=O)[C@@H](C)O	Antirepressor protein CarS (carS, Myxococcus xanthus, UniProt Q06911)	isothermal titration calorimetry	–	pH 7.5, 25 °C	490 ± 90
CCC(C(=O)OC)C1N=C(c2ccc(Cl)cc2)c2cc(OC)ccc2-n2c(C)nnc21 (stereo not shown)	Bromodomain-containing protein 2, tandem bromodomains (BRD2, Homo sapiens, UniProt P25440)	binding, isothermal titration calorimetry	–	30 °C, tandem bromodomains, no binding	> 10000
CC(C)C[C@H](NC(=O)[C@H](C)NC(=O)[C@H](CCCCN)NC(=O)[C@H](CCCNC(=N)N)NC(=O)[C@H](CCC(=O)O)NC(=O)[C@H](C)NC(=O)[C@H](CCC(=O)O)NC(=O)[C@H](CCCCN)NC(=O)[C@H](CCCCN)NC(=O)[C@H](CC(=O)O)NC(=O)[C@H](Cc1c[nH]cn1)NC(=O)[C@H](CC(=O)O)NC(=O)[C@H](C)NC(=O)[C@H](C)NC(=O)[C@H](CCC(=O)O)NC(=O)[C@H](CO)NC(=O)[C@H](CCCCN)NC(=O)[C@H](CC(C)C)NC(=O)[C@H](CCCNC(=N)N)NC(=O)[C@H](CCC(=O)O)NC(=O)[C@H](CC(C)C)NC(=O)[C@H](CCC(=O)O)NC(=O)[C@H](C)NC(=O)[C@H](CCC(=O)O)NC(=O)[C@H](CCC(=O)O)NC(=O)[C@H](Cc1c[nH]cn1)NC(=O)[C@H](CCCNC(=N)N)NC(=O)[C@H](CCC(=O)O)NC(=O)[C@H](CC(N)=O)NC(=O)[C@H](CCCCN)NC(=O)[C@H](CC(C)C)NC(=O)[C@H](CCCNC(=N)N)NC(=O)[C@H](CCC(N)=O)NC(=O)[C@H](CC(C)C)NC(=O)[C@H](CCC(=O)O)NC(=O)[C@H](C)NC(=O)[C@H](CC(=O)O)NC(=O)[C@H](C)NC(=O)[C@@H](NC(=O)[C@H](CC(C)C)NC(=O)[C@H](CCCCN)NC(=O)[C@H](CCC(=O)O)NC(=O)[C@@H](NC(=O)[C@H](CO)NC(=O)CN)C(C)C)[C@@H](C)O)C(=O)N[C@@H](CCC(=O)O)C(=O)N[C@@H](CC(=O)O)C(=O)N[C@@H](CCCCN)C(=O)N[C@@H](CC(C)C)C(=O)N[C@@H](C)C(=O)N[C@@H](CC(=O)O)C(=O)N[C@@H](Cc1ccc(O)cc1)C(=O)O	Plasminogen, kringle 2 domain (PLG, Homo sapiens, UniProt P00747, C188G/E240D/L256Y)	isothermal titration calorimetry	K2-plasminogen	pH 7.4, 25 °C	42 ± 4
O=C1N[C@@H](Cc2ccccc2)C(=O)N2CCCC[C@@H]2C(=O)N[C@@H](CCCCCC(=O)[C@@H]2CO2)C(=O)N[C@H]1Cc1ccccc1	Histone deacetylase 8 (HDAC8, Homo sapiens, UniProt Q9BY41)	–	–	–	3 ± 1
Cc1ccc2c(N)c(C(=O)Nc3cccc(C(F)(F)F)c3)sc2n1	HIV-1 TAR RNA hairpin, 2-AP at U25	binding, 2-aminopurine fluorescence titration	PBS	pH 7.4, with: 2-AP TAR RNA 500 nM	2400
CC[C@H](C)[C@H](NC(=O)[C@H](Cc1c[nH]cn1)NC(=O)[C@H](CCCCNC(=O)[C@@H](NC(=O)[C@H](CCCCN)NC(=O)CSC[C@H](NC(=O)[C@H](Cc1ccccc1)NC(=O)[C@H](CCCCNC(=O)[C@H](CC(C)C)NC(=O)[C@@H]1CCCN1C(=O)[C@H](CCCCN)NC(=O)C[C@@H]1O[C@@H](C)[C@@H](O)[C@@H](O)[C@@H]1O)NC(=O)[C@H](CC(C)C)NC(=O)[C@@H]1CCCN1C(=O)[C@H](CCCCN)NC(=O)c1ccc(O[C@@H]2O[C@H](CO)[C@H](O)[C@H](O)[C@H]2O)cc1)C(N)=O)[C@@H](C)CC)NC(=O)[C@@H](NC(=O)[C@H](CCCCN)NC(=O)CSC[C@H](NC(=O)[C@H](Cc1ccccc1)NC(=O)[C@H](CCCCNC(=O)[C@H](CC(C)C)NC(=O)[C@@H]1CCCN1C(=O)[C@H](CCCCN)NC(=O)C[C@@H]1O[C@@H](C)[C@@H](O)[C@@H](O)[C@@H]1O)NC(=O)[C@H](CC(C)C)NC(=O)[C@@H]1CCCN1C(=O)[C@H](CCCCN)NC(=O)c1ccc(O[C@@H]2O[C@H](CO)[C@H](O)[C@H](O)[C@H]2O)cc1)C(N)=O)[C@@H](C)CC)C(N)=O	lecB	binding, ITC	–	pH 7.5	292

Excerpt of the above:
Structure (SMILES)	target	test	system	conditions	Kd [nM]
CC[C@H](C)[C@H](NC(=O)[C@H](CCC(=O)O)NC(=O)[C@H](CCC(=O)O)NC(=O)[C@H](CC(C)C)NC(=O)[C@H](CC(C)C)NC(=O)[C@]1(C)CCCC=CCCC[C@](C)(NC(=O)[C@H](CCCNC(=N)N)NC(=O)[C@H](CC(N)=O)NC(=O)[C@H](CCC(=O)O)NC(=O)[C@@H]2CCCN2C(=O)[C@H](CC(=O)O)NC(=O)[C@H](CC(N)=O)NC(=O)[C@H](CC(=O)O)NC(=O)[C@H](CC(=O)O)NC(=O)[C@@H](N)CO)C(=O)N[C@@H](C)C(=O)N[C@@H](CCCCN)C(=O)N[C@@H](CCCCN)C(=O)N1)C(=O)N[C@@H](CCCCN)C(=O)N[C@@H](C)C(=O)N[C@@H](CC(N)=O)C(=O)N[C@@H](CC(C)C)C(=O)N[C@@H](CO)C(=O)O	Death domain-associated protein 6, residues 55-144 (Homo sapiens, UniProt Q9UER7)	isothermal titration calorimetry	–	pH 7.5, 25 °C	50
CC(C)[C@@H]1NC(=O)[C@H](Cc2ccccc2)NC(=O)CSC[C@@H](C(N)=O)NC(=O)[C@H](CCC(=O)O)NC(=O)[C@H](CO)NC(=O)[C@H](Cc2c[nH]c3ccccc23)NC(=O)[C@H](C(C)C)NC(=O)[C@H](C(C)C)NC(=O)[C@H](Cc2ccc(O)cc2)NC(=O)[C@H](CC(=O)O)NC(=O)[C@H](Cc2c[nH]c3ccccc23)NC(=O)[C@H](Cc2ccc(O)cc2)NC(=O)[C@H](Cc2c[nH]c3ccccc23)NC(=O)[C@H](CCC(=O)O)NC1=O	Interleukin-1 receptor-like 2, D1-D2 domains (IL1RL2, Homo sapiens, UniProt Q9HB29)	SPR	–	IL-36R D1-D2	1100
